Published values of several laboratories.
Parts stem from different laboratories: compare values within a part only. Values joined by “and” are separate records of one study, mostly repeats; a detail may differ.

Set 1 — observed: enzyme activity; mode: inhibitor; tested at: 0.5 µM; relative to: control; endpoint: remaining activity
Target: G protein-coupled receptor kinase 6 (GRK6, Homo sapiens, UniProt P43250)
Chain of UniProt P43250 (whole entry, looked up): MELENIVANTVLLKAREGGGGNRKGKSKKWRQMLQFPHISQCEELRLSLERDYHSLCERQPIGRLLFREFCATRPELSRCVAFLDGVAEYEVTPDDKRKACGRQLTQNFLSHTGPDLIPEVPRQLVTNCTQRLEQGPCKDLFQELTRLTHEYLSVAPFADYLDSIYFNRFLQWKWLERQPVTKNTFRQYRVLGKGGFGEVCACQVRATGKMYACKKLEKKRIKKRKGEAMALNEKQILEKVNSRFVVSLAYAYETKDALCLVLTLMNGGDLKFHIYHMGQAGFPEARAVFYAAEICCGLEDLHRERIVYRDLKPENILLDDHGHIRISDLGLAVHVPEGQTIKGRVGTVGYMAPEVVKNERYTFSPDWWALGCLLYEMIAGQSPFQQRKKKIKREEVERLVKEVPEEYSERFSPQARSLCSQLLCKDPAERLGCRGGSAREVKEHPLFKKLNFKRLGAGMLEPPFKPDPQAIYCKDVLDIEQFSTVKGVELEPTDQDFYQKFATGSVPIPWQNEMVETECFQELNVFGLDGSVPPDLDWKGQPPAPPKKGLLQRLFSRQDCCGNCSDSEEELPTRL
c1ccc(-c2[nH]ncc2-c2ccnc3ccccc23)nc1: 94.6%
N#C/C(=C\c1ccc(O)c(O)c1)C(=O)NCc1ccccc1: 101%
O=C1C(Cl)=C(N2C(=O)CCC2=O)C(=O)c2ccccc21: 98.5%
CCN(CC)CCNC(=O)c1c(C)[nH]c(/C=C2\C(=O)Nc3ccc(Cl)cc32)c1C: 46.3%
Cn1nc2c3c(cccc31)C(=O)c1ccccc1-2: 89.2%
O=C(NC(NC(=S)Nc1ccc(F)c([N+](=O)[O-])c1)C(Cl)(Cl)Cl)C(c1ccccc1)c1ccccc1 (stereo not drawn): 97.5%
CCN(CC)CCNC(=O)c1c(C)[nH]c(/C=C2\C(=O)Nc3ccc(F)cc32)c1C: 74.7%
C[C@@H]1CCN(C(=O)CC#N)C[C@@H]1N(C)c1ncnc2[nH]ccc12: 101%

Set 2 — method: Spec-seq; form: double-stranded DNA, one strand shown; matrix: in vitro; tested at: not given; notes: whole probe, mean of replicates; relative to: not given; direction: lower = stronger binding; endpoint: relative binding energy; constant ends, left off below: GAGTCGTCTCGTCAGCACA … CCGTAGAGCACTCAGGTC
Target: POU, POU domain (Salpingoeca helianthica)
Target sequence (chain): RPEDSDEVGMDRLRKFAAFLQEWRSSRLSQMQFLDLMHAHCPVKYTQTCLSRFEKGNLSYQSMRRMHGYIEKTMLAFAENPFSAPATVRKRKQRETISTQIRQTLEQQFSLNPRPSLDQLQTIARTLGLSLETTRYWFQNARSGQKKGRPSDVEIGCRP
TGCCTTG: 1.2 ln ratio
TGCCAAA: 1.29 ln ratio
GTGTAAT: 0.818 ln ratio
TGATGAT: 1.02 ln ratio
TGCTGGC: 1.38 ln ratio
TCGAGAT: 1.49 ln ratio
TGGAGAT: 1.25 ln ratio
TGCCGGA: 1.66 ln ratio

Mixed results
O=C1NC(c2ccccn2)Sc2ccccc21 (stereo not drawn)
viability (normal organoid sample E; CellTiter-Glo; human, normal-adjacent epithelium; 1 µM; relative to: DMSO): 95% and 127%

CC(C)n1cnc(-c2ccc(F)cc2)c1-c1ncc(C(=O)Nc2ccc(N3CCN(C)CC3)cc2)[nH]1
patients with chronic gastritis TEAE (phase 2a clinical trial; patients with idiopathic pulmonary fibrosis; 60 mg once daily): 0%

Cn1cncc1[C@@](O)(COc1ccc(C#N)cc1-c1ccc(OC(F)(F)F)cc1)c1ccc(C#N)cc1
cells with altered tubulin phenotype (HEK293T; high-content imaging; 10 µM, 0 h): 0.21% and 0.74%

Cn1cc(Cl)c2c(Oc3c(F)cc(Nc4cc(Cl)nc(N)n4)cc3F)ccnc21
viability (normal organoid sample E; CellTiter-Glo; human, normal-adjacent epithelium; 1 µM; relative to: DMSO): 116% and 256%

CC(=O)Nc1c(C(C)=O)c(=O)n(C)c2nc(-c3ccc(Cl)cc3Cl)c(-c3ccc(Cl)cc3)cc12
viability (normal organoid sample E; CellTiter-Glo; human, normal-adjacent epithelium; 1 µM; relative to: DMSO): 117% and 91.9%

Some of these lines once more (mixed results):
Cn1cncc1[C@@](O)(COc1ccc(C#N)cc1-c1ccc(OC(F)(F)F)cc1)c1ccc(C#N)cc1
cells with altered tubulin phenotype (HEK293T; high-content imaging; 10 µM, 0 h): 0.21% and 0.74%

CC(C)n1cnc(-c2ccc(F)cc2)c1-c1ncc(C(=O)Nc2ccc(N3CCN(C)CC3)cc2)[nH]1
patients with chronic gastritis TEAE (phase 2a clinical trial; patients with idiopathic pulmonary fibrosis; 60 mg once daily): 0%
